Experimental data of several laboratories.
Every numbered part comes from another study and shows a few of its results, in no order.

Series 1
Target: Fragile X messenger ribonucleoprotein 1, C-terminal low-complexity region (Fmr1, Mus musculus, UniProt P35922)
Technique: RNA Bind-n-Seq
Form: RNA
Medium: in vitro
Concentration: 200 nM
Notes: whole 134-nt RNA, ends assumed
Together with: 150 mM LiCl
Relative to: input library
Reading: higher = stronger binding
Endpoint: log2 enrichment
Each molecule: 7-deaza-guanosine replaces G
All sequences stand within: GGGAGUUCUACAGUCCGACGAUC … UGGAAUUCUCGGGUGUCAAGG
CACAGACAACACGCACCCACACAGACACAGAGGGAAGGGGUUGGGAUGGGGACAGGGUGCACAGCAGGGCGGGGUAGGACCCCAUCCCCU: -0.569
AAGUCCUGUGCUACACAUCGUAUGUACCGAAUCGGAAAGGGGAAAGGGGAAAGGGGAAAGUAUUAUGUUACGCCGUUCGGAUCUGCACUU: 0.557
CAAGUCCUGUGCUACACAUCGUAUGUACCGAAUCGGUUUUUGGAAAAAGGAAAGGAAAGUAUUAUGUUACGCCGUUCGGAUCUGCACUUC: -1.53
AGUCCUGUGCUACACAUCGUAUGUACCGAAUCGGGCCCCGGGGCCCCGGGGCCCCGGGAAAGUAUUAUGUUACGCCGUUCGGAUCUGCAC: 0.455
UAACUUUAGAGGAGGAUCGGAUGGAUAUGGCAGUGGACGUGGAUUUGGGGAUGGCUAUAAUGGGUAUGGAGGAGGACCUGGAGGUGGCAA: 0.584
AGUCCUGUGCUACACAUCGUAUGUACCGAAUCGGGGAAAGGGGAAAAAGGGGUGGGGAAAGUAUUAUGUUACGCCGUUCGGAUCUGCACU: -0.042
CCUGUGCUACACAUCGUAUGUACCGAAUCGGGCCCCCCCGGGGCCCCCCCGGCCCCCCCGGAAAGUAUUAUGUUACGCCGUUCGGAUCUG: 0.796
AAGUCCUGUGCUACACAUCGUAUGUACCGAAUCGGGGCCCGGGGCCCGGGGCCCGGGAAAGUAUUAUGUUACGCCGUUCGGAUCUGCACU: -1.98
AAGUCCUGUGCUACACAUCGUAUGUACCGAAUCGGAAAAGGAAAAGGGGAAAAGGGAAAGUAUUAUGUUACGCCGUUCGGAUCUGCACUU: -0.51
UUCCGCCUCUUUCCGGAGUACAAGAACAACAAACUUUUCCUGACCGGGGAGAGCUAUGCUGGCAUCUACAUCCCCACCCUGGCCGUGCUG: 1.54
AAGUCCUGUGCUACACAUCGUAUGUACCGAAUCGGAAAAAAAGGAGGUUUUUUUGGAAAGUAUUAUGUUACGCCGUUCGGAUCUGCACUU: -2.53

Series 2
Target: RNA binding protein fox-1 homolog 2, RRM domain, GST-SBP tag (RBFOX2, Homo sapiens, UniProt O43251-10, residues 100-194)
Technique: RNA Bind-n-Seq
Form: RNA
Medium: in vitro
Concentration: 365 nM
Notes: natural RNA segment, single round, ends assumed
Relative to: no-protein control
Reading: higher = stronger binding
Endpoint: RBNS enrichment (R)
All sequences stand within: GGGAGUUCUACAGUCCGACGAUC … UGGAAUUCUCGGGUGCCAA
Residues (chain): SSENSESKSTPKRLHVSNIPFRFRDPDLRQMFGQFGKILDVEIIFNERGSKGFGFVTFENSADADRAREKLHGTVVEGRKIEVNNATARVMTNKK
AGCACUUUACAAAUGGCUCCAUGUCAUUCAUCCCAGGGGCCAUAAUCUCUUGCACCACCUAUUCUUACUUCCUGUUCAGCUCCUUUACAGCUUUUAUUUUCAACUGCUUC: 1.56
UGAUGCCUGGUGGUCUUACAGCAUCACUGGCACACUAACGUCGGACUGUGUGAUUGAGCCCAAGAAGCCAGAGACUAUGCAUUUGGCCGCUGCCAAGGGGGGGAUUGCUC: 0.445
GUAGUUUUGUUAUGAAAGUUCUCUACCACCUACCUGUGUGAGUGACACCAACAUCCAGAUGUCACAGCUCUCCAGAGCUAGUCAGAAGAGAAAUCAAAUUAGUGUUUAAA: 0.494
GAUAUAUAUGUAUAUAUAUUUAAAUACACAUAUAUAUUGUACAGAAUAAAAAAUGUUUUAUUGGACACUCUGCUUAUUCUUAAGACACAGGUUCAACCUUCAAGACUAGA: 0.574
AAAUCUUGACUUACCCAGUCCCCACCUGUCUCUUCCUGCCUUCUUUAUCUGUAAGAACACAAAUUUGGCAUUACAGUUAAGGGAGUGAUUUGAAUUGAUUGACAAGUCCU: 0.206
GCCUGCUUCUUCAUCACCUUAAUUUCUGCCAUAACCUGGACUUCGCUGACUGUGUGACUGCCCUGCUCCCUCUGUUCAUCUUAGCCCCAGCCCUCGUCCUCUUUCUGUGA: 2.46
GUGGCUUUGCUAGGAAUGCCAGAAGAAGGGUCAGCUUGACGUCUAUAGAUCUCCACUACACUCCAGAAGCCCAUCCCUAGUCUCCAAAGCCCUGCCUCUGGGCAACUCGC: 2.56
UUUGUGAGUAGUUUACUAAGGAACUGAAAAUGGUCCCCUUUGUCCAAGCUGAGCUGCUAGGGAAUCAAGGUGAACUAGACCCGUCCUCAGGCCUCUGGCACCUGUUUCUA: 0.287
CUUUCUAUCGCUGUGGAUAAGAGAAUCAGCUACUGUGUUAUUCCUUAUCUGAGCCAAACCCCUUAGCAGAAGAAACUGUCCAGCCACACCGAGUGCUCGAAUGGUGUAUU: 2.41
CUUCUCAGUUAUAAACAUGCUGGCCAGAUCUCUUAGCCUGCAAAGAGAACUUUCCCCAGUCACCAUAGACCAUUCUCCUUCCUGAAGGCUUGGGGCAGACCAUUCGUUUA: 0.349
GACAGAGCUCACCUUCAGGCAGGAGCAGGGGCCUCAGCAUUCUGCAGUGAGUGUAGAGUGAAAGUCCUCCAUGUAGUAUUUUCCUGCCCCAGACCAGUCUUAUAGUAAAU: 0.535
UGCUUCGAGUGACUGACCCCAGUGGUAUCCUGUGACAUGUAACAGCCAGGAGUGUUAAGCGUUCAGUGAUGUGGGGUGAAAAGUUACUACCUGUCAAGGUUUGUGUUACC: 0.613

Series 3
Target: Interferon regulatory factor 7, full length, phosphomimetic (IRF7, Homo sapiens, UniProt Q92985, residues 1-503, S471D/S472D/S475D/S476D/S477D/S483D/S484D/S487D)
UniProt Q92985, sequence (whole entry, unmodified, looked up): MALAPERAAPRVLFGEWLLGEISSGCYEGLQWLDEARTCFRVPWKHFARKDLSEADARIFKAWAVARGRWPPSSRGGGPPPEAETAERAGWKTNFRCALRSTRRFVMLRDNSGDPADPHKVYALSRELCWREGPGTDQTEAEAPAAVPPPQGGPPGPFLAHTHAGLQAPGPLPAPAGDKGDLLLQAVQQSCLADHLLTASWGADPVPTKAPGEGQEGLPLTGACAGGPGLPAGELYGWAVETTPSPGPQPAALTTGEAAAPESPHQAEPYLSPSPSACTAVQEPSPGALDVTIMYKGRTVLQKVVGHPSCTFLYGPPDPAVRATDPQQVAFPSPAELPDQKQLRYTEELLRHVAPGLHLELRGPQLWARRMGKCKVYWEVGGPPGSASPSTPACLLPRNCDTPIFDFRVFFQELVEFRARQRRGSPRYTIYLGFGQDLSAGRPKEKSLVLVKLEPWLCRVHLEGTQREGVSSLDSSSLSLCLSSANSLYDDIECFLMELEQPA
Technique: protein-binding microarray
Form: double-stranded DNA, one strand shown
Medium: in vitro
Concentration: 2200 nM top
Notes: 60-bp whole probe
Together with: salmon DNA 0.4 mg/ml
Relative to: random background probes
Reading: higher = stronger binding
Endpoint: fitted relative affinity
All sequences stand within: GCCTAGCAC … GTCTTGATTCGCTTGACGCTGCTG
TACGATTTCAGTATCGAGACGTGCTAG: 0.96 z-score
GACGGTTTCCTTTTCCTAACGTGCTAG: 5.68 z-score
GACGATTTCGGGACTGTAGACGTGCTA: 1.31 z-score
GACGGTTTCAGTTTCGGGACGTGCTAG: 8.39 z-score
GACGATTTCATTTTCGAGACGTGCTAG: 5.76 z-score
GGTGCTCTGCAGCTCAGGCAGTGCTAG: -0.71 z-score
GACGGTATCAGTCTCGAGACGTGCTAG: 0.456 z-score
AGGAATTTCCCACTTTCAGTGTGCTAG: 2.09 z-score
TTATGACTGGGTTTCGGTTAGTGCTAG: 4.37 z-score
TCCAGTCTGGGAGATGAAGCGGTGCTA: -0.673 z-score
GACGATCGCAGACTGGAGACGTGCTAG: -0.406 z-score
TTAGGACTGGCGTTTCGGTTAGTGCTA: 1.39 z-score
GACGGTATCCTTATCCAGACGTGCTAG: 0.648 z-score
GACGAACTGAGGTTTCGAGACGTGCTA: 1.29 z-score
AGTCTTCTCCTCTAGGTTCTCGTGCTA: 1.11 z-score
TCCACTTTCTTTTGCTTGTTGTGCTAG: 4.4 z-score
TTAGGTTTGGGTCTCGGTTAGTGCTAG: 0.846 z-score
TTAGGTCTCGGTTTCGTTTAGTGCTAG: 6.49 z-score
CCTCCTTACTTTATGTAGGAGTGCTAG: 1.28 z-score

Series 4
Target: Histone acetyltransferase KAT6A, both winged helices, GST fusion (KAT6A, Homo sapiens, UniProt Q92794, residues 1-181)
Technique: protein binding microarray
Form: double-stranded DNA, one strand shown
Medium: in vitro
Concentration: not given
Notes: 8-mer, flanks averaged, mean of 2 arrays, mostly near background
Relative to: not given
Reading: higher = stronger binding
Endpoint: E-score
Target sequence (chain): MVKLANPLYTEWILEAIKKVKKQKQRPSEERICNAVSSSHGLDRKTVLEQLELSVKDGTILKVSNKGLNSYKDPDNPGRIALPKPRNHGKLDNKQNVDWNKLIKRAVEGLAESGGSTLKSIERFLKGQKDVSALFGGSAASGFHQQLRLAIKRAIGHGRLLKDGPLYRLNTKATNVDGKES
CGCAAATC: 0.184
AGGACTTA: -0.224
ACCGAGCT: -0.0288
ATACTCAC: -0.0696
GCAACTCC: 0.0177
AAGGGATC: -0.123
AGTTAGGC: -0.116
AGGGGATC: -0.151
CCGTAAAC: 0.267
AAGGGCGG: 0.16
CTTGGGAA: -0.0527
GGAGTTAA: -0.0157
AATTAAAT: 0.0122
AACCTGGC: 0.00744
AACTACCA: -0.199
ATCGCTTG: 0.134
AACTCATA: -0.146
ACTCCAGC: -0.132
AGGGCTCG: -0.0204
ACCTTGCA: -0.156
ACCGCAGG: 0.135
ATGCCCAA: -0.0901
TACTTAAA: -0.253
AAACCAAC: -0.0396
CTAAAGAG: -0.231

Series 5
Target: Sal-like protein 4, full length isoform A (SALL4, Homo sapiens, UniProt Q9UJQ4, residues 1-1053)
UniProt Q9UJQ4, sequence (whole entry, looked up): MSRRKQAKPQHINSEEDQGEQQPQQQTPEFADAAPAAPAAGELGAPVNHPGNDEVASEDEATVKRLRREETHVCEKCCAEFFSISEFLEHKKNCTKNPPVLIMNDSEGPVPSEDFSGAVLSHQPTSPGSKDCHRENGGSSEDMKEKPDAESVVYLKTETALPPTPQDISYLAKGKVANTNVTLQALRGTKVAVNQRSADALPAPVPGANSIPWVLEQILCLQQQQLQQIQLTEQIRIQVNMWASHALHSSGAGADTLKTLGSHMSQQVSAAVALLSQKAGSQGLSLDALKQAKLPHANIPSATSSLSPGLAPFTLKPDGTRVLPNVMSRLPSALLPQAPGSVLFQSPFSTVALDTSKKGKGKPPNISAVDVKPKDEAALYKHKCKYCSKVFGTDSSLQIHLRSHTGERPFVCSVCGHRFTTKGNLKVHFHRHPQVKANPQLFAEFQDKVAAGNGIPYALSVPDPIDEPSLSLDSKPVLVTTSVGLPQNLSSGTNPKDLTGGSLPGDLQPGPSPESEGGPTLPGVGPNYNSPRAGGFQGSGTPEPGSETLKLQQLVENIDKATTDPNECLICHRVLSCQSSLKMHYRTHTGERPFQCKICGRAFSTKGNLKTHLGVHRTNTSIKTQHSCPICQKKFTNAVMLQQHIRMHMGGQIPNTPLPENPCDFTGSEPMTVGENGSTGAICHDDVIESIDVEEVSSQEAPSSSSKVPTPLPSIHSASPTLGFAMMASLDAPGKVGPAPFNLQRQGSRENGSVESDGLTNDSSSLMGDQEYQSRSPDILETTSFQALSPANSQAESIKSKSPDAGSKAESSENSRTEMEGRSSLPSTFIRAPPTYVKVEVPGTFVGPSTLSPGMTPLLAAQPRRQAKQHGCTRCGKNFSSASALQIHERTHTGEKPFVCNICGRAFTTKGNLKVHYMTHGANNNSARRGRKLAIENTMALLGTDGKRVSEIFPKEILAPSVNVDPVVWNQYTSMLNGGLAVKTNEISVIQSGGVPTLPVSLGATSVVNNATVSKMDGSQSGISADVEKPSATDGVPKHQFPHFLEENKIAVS
Technique: universal PBM
Form: double-stranded DNA, one strand shown
Medium: in vitro
Concentration: 600 nM
Notes: 8-mer, flanks averaged, mean of replicates
Reading: higher = stronger binding
Endpoint: E-score
AGGCAAGG: -0.199
AATGAGGT: 0.0915
CGGGGCAG: -0.35
GGAGGGCA: -0.203
CCTGGCGC: -0.373
GTTCAATA: 0.226
AGTTAAAG: 0.0512
AAGGAGAT: 0.0914
AGTAGTTA: 0.18
CTCGTGAC: -0.0636
AGAACGAT: 0.058
CTCGCAAC: 0.0412
GTTCCCCA: -0.104
AACTCCGG: -0.181
GTGCTTAA: 0.0365
AATGATTA: 0.36
CTTAGCTC: -0.236
AGCGTCGA: -0.0259

Series 6
Target: Sox-I, HMG box (Salpingoeca helianthica)
Technique: Spec-seq
Form: double-stranded DNA, one strand shown
Medium: in vitro
Concentration: not given
Notes: whole probe, mean of replicates
Relative to: not given
Reading: lower = stronger binding
Endpoint: relative binding energy
All sequences stand within: GAGTCGTCTCGTCAGCAC … CCGTAGAGCACTCAGGTC
Construct (chain): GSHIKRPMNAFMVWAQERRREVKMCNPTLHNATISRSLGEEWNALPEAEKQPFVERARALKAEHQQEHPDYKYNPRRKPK
GTATGTT: 0.111 ln ratio
GGCGGTT: 1.13 ln ratio
CGGCGTT: 1.07 ln ratio
TCTTGTT: -1.04 ln ratio
CATGTCT: 0.876 ln ratio
CATCTAC: 0.614 ln ratio
GTTGGTT: 0.843 ln ratio
CTATGTT: -0.298 ln ratio
TGCTGTT: -0.617 ln ratio
CATGCTC: 0.847 ln ratio
CATAAGG: 0.28 ln ratio
CATGCTT: 0.81 ln ratio
CATGTCG: 1.08 ln ratio
CATCAGC: 1.08 ln ratio
CATATCG: 0.746 ln ratio
CATGTTA: 0.855 ln ratio
GCTTGTT: -0.386 ln ratio
TCATGTT: -0.0148 ln ratio
GCCAGTT: -0.012 ln ratio
GAACGTT: 0.706 ln ratio

Repeated from above (series 5):
AGGCAAGG: -0.199
AATGAGGT: 0.0915
CGGGGCAG: -0.35
GGAGGGCA: -0.203
CCTGGCGC: -0.373
GTTCAATA: 0.226
AGTTAAAG: 0.0512
AAGGAGAT: 0.0914
AGTAGTTA: 0.18
CTCGTGAC: -0.0636
AGAACGAT: 0.058
CTCGCAAC: 0.0412
GTTCCCCA: -0.104
AACTCCGG: -0.181
GTGCTTAA: 0.0365
AATGATTA: 0.36
